Measurements pooled from the literature.
Numbered parts are unrelated; each lists some results of a single study.

Study 1
Target: Phosphate system positive regulatory protein PHO4, full length, GST-tagged (PHO4, Saccharomyces cerevisiae, UniProt P07270, residues 1-312)
Technique: competition protein-binding microarray
Form: double-stranded DNA, one strand shown
Matrix: in vitro
Tested at: 2 µM
Notes: whole 60-bp probe, lowest competitor level
Together with: Cbf1 competitor, 0.05 µM
Reading: higher = stronger binding
Shared flanks, not repeated: … GTCTTGATTCGCTTGACGCTGCTG
Residues (chain): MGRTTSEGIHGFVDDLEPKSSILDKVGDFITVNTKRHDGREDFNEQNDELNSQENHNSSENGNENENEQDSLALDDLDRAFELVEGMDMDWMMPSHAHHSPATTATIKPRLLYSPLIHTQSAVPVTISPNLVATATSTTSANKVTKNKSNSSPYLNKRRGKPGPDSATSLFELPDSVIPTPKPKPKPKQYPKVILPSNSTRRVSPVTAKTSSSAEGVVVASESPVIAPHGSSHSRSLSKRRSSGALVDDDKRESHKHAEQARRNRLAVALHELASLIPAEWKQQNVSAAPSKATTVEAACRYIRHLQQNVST
| Strand | fluorescence intensity [a.u.] |
| --- | --- |
| TTCATTTTTGGTTAACTCGTGTAACTCTTCTTCCAA | 6540 |
| GGGTGTGCATCTGGGCATGATCTACCAAGAGGACAG | 7600 |
| GTCTTGTCTCATTGTCTTGTGGGTGTCCCCACTTCA | 4500 |
| ATTCTGGGATGCCCTGTCGTGGGTACAGTTGCCACA | 6350 |
| CGTCCTAGTGATTGCTCCGTGGGTGCCATGAGGAAG | 7260 |

Study 2
Target: Histone acetyltransferase KAT6A, winged helix 2, GST fusion (KAT6A, Homo sapiens, UniProt Q92794, residues 85-181)
Technique: protein binding microarray
Form: double-stranded DNA, one strand shown
Matrix: in vitro
Tested at: not given
Notes: 8-mer, flanks averaged, mean of 2 arrays, mostly near background
Baseline: not given
Reading: higher = stronger binding
Construct (chain): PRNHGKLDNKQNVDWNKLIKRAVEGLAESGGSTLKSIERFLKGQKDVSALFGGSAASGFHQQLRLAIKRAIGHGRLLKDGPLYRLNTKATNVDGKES
| Strand | E-score |
| --- | --- |
| CCGGTGAA | 0.106 |
| AACCTAAA | 0.0552 |
| AATAATAC | 0.0585 |

Study 3
Target: Interferon regulatory factor 3, full length, phosphomimetic (IRF3, Homo sapiens, UniProt Q14653, residues 1-427, S386D/S396D/S398D/S402D/T404D/S405D)
Technique: protein-binding microarray
Form: double-stranded DNA, one strand shown
Matrix: in vitro
Tested at: 2540 nM top
Notes: 60-bp whole probe
Together with: salmon DNA 0.4 mg/ml
Baseline: random background probes
Reading: higher = stronger binding
Construct (chain): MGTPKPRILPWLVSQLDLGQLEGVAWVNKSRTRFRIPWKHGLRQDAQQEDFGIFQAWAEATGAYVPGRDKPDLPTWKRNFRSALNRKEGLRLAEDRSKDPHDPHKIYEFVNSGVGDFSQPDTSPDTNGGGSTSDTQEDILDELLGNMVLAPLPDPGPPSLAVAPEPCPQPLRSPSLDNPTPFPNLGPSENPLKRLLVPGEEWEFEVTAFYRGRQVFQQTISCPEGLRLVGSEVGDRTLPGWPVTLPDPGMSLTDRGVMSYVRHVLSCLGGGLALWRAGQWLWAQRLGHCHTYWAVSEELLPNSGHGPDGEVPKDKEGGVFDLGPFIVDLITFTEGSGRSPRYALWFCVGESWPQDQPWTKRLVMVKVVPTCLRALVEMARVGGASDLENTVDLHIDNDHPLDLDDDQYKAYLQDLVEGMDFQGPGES
| Strand | fitted relative affinity [z-score] |
| --- | --- |
| GCCTAGCACTCACAATTCTTTTTATGACTGTGCTAGGTCTTGATTCGCTTGACGCTGCTG | 1.27 |
| GCCTAGCACTCATACCTGTATATCTTACTGTGCTAGGTCTTGATTCGCTTGACGCTGCTG | 0.428 |
| GCCTAGCACTTAGGTACCGGTATCGGTTAGTGCTAGGTCTTGATTCGCTTGACGCTGCTG | 3.11 |

Single results of other studies
| Molecule | target | assay | system | conditions | how to read | measurement | value |
| --- | --- | --- | --- | --- | --- | --- | --- |
| PhoQ, residues 284 288 289 292 302 303 SIHLQL | PhoP, residues 12 14 15 18 19 VHSCL (Escherichia coli, UniProt P23836) | Sort-seq, item: YFP reporter | E. coli | PhoQ-PhoP variant library, together with: 10 µM Mg2+ | baseline: high Mg2+ state, higher = stronger signaling | fold induction | 5.63 |

Some of these lines once more (study 2):
| Strand | E-score |
| --- | --- |
| AACCTAAA | 0.0552 |
